Results collected from several papers.
Every numbered part comes from another study and shows a few of its results, in no order.

Sample 1 — method: RNA Bind-n-Seq; molecule type: RNA; medium: in vitro; concentration: not given; reference: input RNA pool; direction: higher = stronger binding
Target: RING finger protein unkempt homolog, zinc fingers 1-6, GST-SBP tag (UNK, Homo sapiens, UniProt Q9C0B0, residues 30-357)
Chain of UniProt Q9C0B0 (30-357, looked up): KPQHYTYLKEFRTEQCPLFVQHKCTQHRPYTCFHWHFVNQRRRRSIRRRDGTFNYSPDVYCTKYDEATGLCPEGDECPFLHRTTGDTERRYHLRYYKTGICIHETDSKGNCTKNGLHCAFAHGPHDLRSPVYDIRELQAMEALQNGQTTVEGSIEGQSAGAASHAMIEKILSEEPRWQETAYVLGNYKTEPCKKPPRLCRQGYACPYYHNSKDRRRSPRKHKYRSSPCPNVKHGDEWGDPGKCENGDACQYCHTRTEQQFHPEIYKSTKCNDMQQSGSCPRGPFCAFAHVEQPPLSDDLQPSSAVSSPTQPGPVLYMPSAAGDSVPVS
Notes: RNA with constant flanks, human and mouse sites, ends assumed
All sequences stand within: GGGAGUUCUACAGUCCGACGAUC … CAACAGAGGAUUGAGCAUCA
Strand | bound/input enrichment [ratio]
AUUAAGCAAAGGACCAAGUUGGAGCUUAAAGCCAAGGAUUUACAAGAUGAGCUGGCGGGCAACAGUGAACAGCGGAAACGUUUAUUAAAAGAGAGGCAGAAGCUGCUUGAAAAAAUAGAA | 0.335
UGCGUCCUUUUUCGUUUUUCGGACGAUGCCUUCAAUACCACCUUUAUUUCCACCAUAGGAAUAGACUUUAAGAUCAAAACAGUGGAACUACAAGGAAAGAAGAUCAAGCUACAGAUAUGG | 0.567
UGCUGCUACAUGAACUUCACAGGGGCCCAAAGCCAUUGUCUGCAUGUGUCUGCCCAGAAGAUGCUAGACAAUGCUGCUUUCACCCUGUAUGAGUUCUGGCAGGAUGAAGCCUCCUGGAGA | 0.0704
UGUUUGAAAAUGUUUAUUUCUGUUUAUGGUGUAAUCAUUCUGAGGUGAGGCUUUUCUUAUUUCCUUUGCAUUUUGCUAGAGCUGUGCUGAGUUCAGCAUUUGCUUAUUUAACCACUACAU | 0.322
UAUCACAUACACAUAAAAAAGGGAAGAAAUUCGGCAGUGAAUGAAGAUUCCUCUGCAUUUUAGCAUUGCUUUUUCUACUGUAGUUGGCUUUUGAAUGAGGAUGACAAUGGAAGAGAUGAA | 0.47
AGCUCCAGUGGUAGCUUUGGUGGUACACUCAGUACCAGUAUCUGCUUCGGUGGCUCUCCCUGCACCAGCACUGGCUUUGGAGGCACACUUAGCACCAGUGUCUCCUUUGGUGGCUCUUCC | 0.214
AUGGAUGUCACUGAGGAUGAAGAGGAAGAAAUCAAACUGGAGAUAAAUAUGCUAAAGAAAUACUCUCAUCACAGAAACAUUGCAACAUAUUAUGGUGCUUUCAUCAAAAAGAGCCCUCCA | 0.182
CUUACCAAACACUUGCUGAAGUCAGUGUGUACUGAUAUCACUAACCUCAUUUUCAACUUCUUAGCUUCGGAUUUAAUGAUGGCAGUAGACGAUCCUGCAGCCAUUACAAGUGAAAUAAGA | 0.323
CCGACCCCGGCCGCGCCCAGCCCCCACCAUGCCACCCGCGGGGCUCCGCCGGGCCGCGCCGCUCACCGCAAUCGCUCUGUUGGUGCUGGGGGCUCCCCUGGUGCUGGCCGGCGAGGACUG | 0.661
UAUCCAAAAAGAUUGUAUACAAAAACUAACAAACAGAAAAGUGAACUUUGUAAAUGUAUAGAAACAGUUCAUCAAGAUUCAUGUAAUGCCUGCUUUCCUCAGCAGGACCAGAGGAAUUCC | 0.25
GAUUUUGAAACUGAGCACAAGUUGGAACCUGUAUUUGACUCUCCAAGGAUGUCCCGCCGCAGCUUGCGUCUGGUCACAACAGCUUCGUACAGCAGUGGGGACAGCCAGGCUAUUGAUUCG | 0.0844

Sample 2 — method: universal PBM; molecule type: double-stranded DNA, one strand shown; medium: in vitro; concentration: not given; direction: higher = stronger binding
Target: Sal-like protein 4, full length isoform B (SALL4, Homo sapiens, UniProt Q9UJQ4-2, residues 1-616)
Notes: 8-mer, flanks averaged, mean of replicates
Residues (chain): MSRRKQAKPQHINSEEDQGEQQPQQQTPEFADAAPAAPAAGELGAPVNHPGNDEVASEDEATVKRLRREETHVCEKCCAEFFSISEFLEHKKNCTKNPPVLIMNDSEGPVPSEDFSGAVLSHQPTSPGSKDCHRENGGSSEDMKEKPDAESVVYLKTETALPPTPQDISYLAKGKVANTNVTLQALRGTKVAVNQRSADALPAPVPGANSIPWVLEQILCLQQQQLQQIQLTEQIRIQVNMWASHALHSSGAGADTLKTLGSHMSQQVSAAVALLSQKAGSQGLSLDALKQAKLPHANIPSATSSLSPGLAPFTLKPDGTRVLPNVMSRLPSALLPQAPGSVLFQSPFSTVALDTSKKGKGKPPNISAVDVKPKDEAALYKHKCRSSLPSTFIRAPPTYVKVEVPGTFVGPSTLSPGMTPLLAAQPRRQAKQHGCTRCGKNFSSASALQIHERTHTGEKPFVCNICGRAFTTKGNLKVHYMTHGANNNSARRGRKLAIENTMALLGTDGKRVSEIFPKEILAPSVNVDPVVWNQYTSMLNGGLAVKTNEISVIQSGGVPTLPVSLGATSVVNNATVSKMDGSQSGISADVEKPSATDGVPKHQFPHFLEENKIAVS
Strand | E-score
CTACACTA | 0.177
AACTAGTC | 0.146
CGGTATGC | -0.19
AGGTAAAC | 0.127
ACGAAGGC | -0.293
AAGACCTA | 0.0237
GCTTTCAA | -0.0773
CCTCTCAA | -0.0781
TTTAGAAA | 0.289
ACCCAGTA | -0.0636
ATGCTTAG | 0.179
CCCGTACC | -0.291
GAAAGCGA | -0.0599
GTTGCAAC | -0.0711
CAACTAGC | -0.0232
ACCATGCT | 0.0288
CTCCGTAA | -0.107
ATCCCCTC | -0.131
ACCCCGAC | -0.251
ACTATGCG | 0.0161
ATGAAGAG | 0.174

Sample 3 — method: protein-binding microarray; molecule type: double-stranded DNA, one strand shown; medium: in vitro; concentration: 250 nM; notes: 60-bp whole probe; with: salmon DNA 0.4 mg/ml; reference: random background probes; direction: higher = stronger binding; all sequences stand within: GCCTAGCAC … GTCTTGATTCGCTTGACGCTGCTG
Target: Interferon regulatory factor 7, full length, phosphomimetic (IRF7, Homo sapiens, UniProt Q92985, residues 1-503, S101K/S471D/S472D/S475D/S476D/S477D/S483D/S484D/S487D)
Target sequence (chain): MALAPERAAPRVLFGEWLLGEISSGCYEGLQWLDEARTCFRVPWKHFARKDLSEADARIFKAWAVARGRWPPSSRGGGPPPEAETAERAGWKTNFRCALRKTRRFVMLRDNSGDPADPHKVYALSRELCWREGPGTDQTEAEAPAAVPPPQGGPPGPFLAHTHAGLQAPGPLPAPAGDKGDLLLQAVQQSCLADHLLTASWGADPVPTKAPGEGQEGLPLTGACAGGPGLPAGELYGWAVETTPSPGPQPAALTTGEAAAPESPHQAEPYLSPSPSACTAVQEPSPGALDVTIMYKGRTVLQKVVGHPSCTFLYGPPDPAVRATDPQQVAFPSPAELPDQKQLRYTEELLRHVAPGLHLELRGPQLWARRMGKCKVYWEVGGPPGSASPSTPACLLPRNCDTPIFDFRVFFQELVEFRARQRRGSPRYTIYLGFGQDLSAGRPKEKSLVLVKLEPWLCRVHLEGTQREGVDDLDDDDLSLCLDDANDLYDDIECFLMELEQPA
Strand | log fluorescence [z-score]
GACTGTATCGGTATCGGGACGTGCTAG | 0.559
TTAGATTCCCGTTTCGATTAGTGCTAG | 6.56
TCATGGTTCCCATTCCAACTGTGCTAG | 1.26
GATGGTATTTGCCTGTGGTCGTGCTAG | -0.681
TTAGGTTTCGGACTGGTTTAGTGCTAG | 4.44
TTTCTCTCATTATGTGGGTTGTGCTAG | 1.74
TAAGGTATAAACTTGGGAAAGTGCTAG | -0.0121
TTAGGTATCGACACTGGGTTTGTGCTA | -0.26
TCAGATGTCAAACTCACACTGTGCTAG | -0.194
GACGATTTCGGACTGGGGACGTGCTAG | 0.515
TATTACCTCATCTTCCTCTGCGTGCTA | 1.05
TTACGACTGGGTTTCGGTTAGTGCTAG | 6.73
TTAGACTTCAGTATCGATTAGTGCTAG | 0.598
TCAGAAATTCCTCTGAGACTGTGCTAG | -0.285
GAGGGTTTCGGTTCCGGGACGTGCTAG | 11.1
TTAGATCTCAATCTCGATTAGTGCTAG | 0.407
GACGGACTGGACACTGGCGACGTGCTA | -0.944
TTAGGTATCCTACCGCTTTAGTGCTAG | -0.161
TCATTTTTTTTAATTGAACTGTGCTAG | 0.741
TGACGGCTCACTCCGTTGGAGTGCTAG | -0.737
TTAGCTATCAGACTGGATTAGTGCTAG | -0.413
TTAGGTCACGGTCTCGGTTAGTGCTAG | 1.69
GACGATATCAGTCTCAAGACGTGCTAG | -0.065
GGCGGTTTCGGTTCCGGGACGTGCTAG | 12

Sample 4 — method: RNA Bind-n-Seq; molecule type: RNA; medium: in vitro; concentration: 200 nM; notes: whole 134-nt RNA, ends assumed; with: 150 mM LiCl; reference: input library; direction: higher = stronger binding; each molecule: 7-deaza-guanosine replaces G
Target: Ras GTPase-activating protein-binding protein 1, full length (G3BP1, Homo sapiens, UniProt Q13283)
Chain of UniProt Q13283 (whole entry, looked up): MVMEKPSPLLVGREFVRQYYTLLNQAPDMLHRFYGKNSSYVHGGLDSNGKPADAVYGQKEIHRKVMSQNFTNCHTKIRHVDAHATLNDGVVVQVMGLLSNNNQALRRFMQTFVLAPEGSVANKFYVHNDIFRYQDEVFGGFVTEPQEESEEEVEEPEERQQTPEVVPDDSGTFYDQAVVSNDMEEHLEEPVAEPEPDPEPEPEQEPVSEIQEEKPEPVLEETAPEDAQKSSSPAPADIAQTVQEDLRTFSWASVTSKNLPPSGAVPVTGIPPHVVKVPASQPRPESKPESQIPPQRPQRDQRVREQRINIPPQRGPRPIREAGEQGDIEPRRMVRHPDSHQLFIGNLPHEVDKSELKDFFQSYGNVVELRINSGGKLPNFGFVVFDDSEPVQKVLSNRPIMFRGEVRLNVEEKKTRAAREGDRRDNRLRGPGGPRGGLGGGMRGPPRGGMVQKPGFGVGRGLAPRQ
All sequences stand within: GGGAGUUCUACAGUCCGACGAUC … UGGAAUUCUCGGGUGUCAAGG
Strand | log2 enrichment
UAACUUUAGAGGAGGAUCUGAUGGAUAUGGCAGUGGACGUGGAUUUGGGGAUGGCUAUAAUGGGUAUUGAGGAGGACCUGGAGGUGGCAA | -0.139
CAAGUCCUGUGCUACACAUCGUAUGUACCGAAUCGGUUUUUGGAAAGGUUUUUGGAAAGUAUUAUGUUACGCCGUUCGGAUCUGCACUUC | -1.36
UUCCUCAAGUCCUGUGCUACACAUCGUAUGUACCGAAUCGGAGGAGGAGGAAAGUAUUAUGUUACGCCGUUCGGAUCUGCACUUCCAGCA | -2.04
UGGGAGGUGGAUUUUGUUUAUUUUUUUAGCUAAUUUCCAGGGGUGGGAAUUUUUUUUUAAUAUGUGUCAUGAAUAAAGUUGUUUUUGAAA | -0.19
UUAGAUGAGGACCUUGAGAUUGAAUUGGUUGAGGAAGAGCCUCCAUUCCUGAGAGGGCACACUAAGCAAAGCAUGGACAUGAGCCCCAUU | -1.37
UAACUUUAGAGGUGGAUCUGAUGGAUAUGGCAGUGGACGUGGAUUUGGGGAUGGCUAUAAUGGGUAUGGAGGAGGACCUGGAGGUGGCAA | 0.161
UGUGCUACACAUCGUAUGUACCGAAUCGGGCCCCCCCGGGGCCCCCCCGGGGCCCCCCCGGGAAAGUAUUAUGUUACGCCGUUCGGAUCU | -1.12
GCAGGAAGUAAAAACAAAUGGAAAUGCUUCGGAUAGUGGCAGGGGUGGGGGUUGCUAAGGAAAGGGUGGGAUGGGAGUGGGUAAAGAGUG | -0.616
UCUUCAGAGGCCCCACAGUAUCAAAUAUCCGCCUGGCUGGAUUAGAGUAUGUUCUGCACUUCACUGCACUGAAUGGGAAGAUUUACUUUC | 0.687
CCUGUGCUACACAUCGUAUGUACCGAAUCGGGGCCCCCCGGGGCCCCCCGGGGCCCCCCGGAAAGUAUUAUGUUACGCCGUUCGGAUCUG | -1.29
GUCCUGUGCUACACAUCGUAUGUACCGAAUCGGGGUUUUUGGUUUUUGGGGUUUUUGGAAAGUAUUAUGUUACGCCGUUCGGAUCUGCAC | -0.292

Excerpt of the above (sample 2):
Strand | E-score
CTACACTA | 0.177
TTTAGAAA | 0.289
CAACTAGC | -0.0232
AAGACCTA | 0.0237
ACCATGCT | 0.0288
GAAAGCGA | -0.0599
ACTATGCG | 0.0161
ATGCTTAG | 0.179
ACGAAGGC | -0.293
